Assay results from different studies.
Each line is one published result; not all experiments were run side by side. ± gives the spread as reported.
UDP-N-acetylglucosamine--dolichyl-phosphate N-acetylglucosaminephosphotransferase: UDP-N-acetylglucosamine--dolichyl-phosphate N-acetylglucosaminephosphotransferase (Homo sapiens, UniProt Q9H3H5)
aacA4: Aminoglycoside N(6')-acetyltransferase type 1 (aacA4, Klebsiella pneumoniae, UniProt P19650)
cyp121: Mycocyclosin synthase (cyp121, Mycobacterium tuberculosis, UniProt P9WPP7)
VIM-2: Metallo-beta-lactamase VIM-2 (VIM-2, Escherichia coli, UniProt Q5U7L7)
Leucine--tRNA ligase: Leucine--tRNA ligase (Staphylococcus aureus, UniProt Q2FXH2)
Calmodulin-domain protein kinase 1, putative: Calmodulin-domain protein kinase 1, putative (Cryptosporidium parvum, UniProt A3FQ16)
Inosine-5'-monophosphate dehydrogenase: Inosine-5'-monophosphate dehydrogenase (Cryptosporidium parvum, UniProt Q8T6T2)

By UniProt entry, the sequences of proteins in these tests, tags left out. Residues count along the entry.
UniProt Q9H3H5, whole entry: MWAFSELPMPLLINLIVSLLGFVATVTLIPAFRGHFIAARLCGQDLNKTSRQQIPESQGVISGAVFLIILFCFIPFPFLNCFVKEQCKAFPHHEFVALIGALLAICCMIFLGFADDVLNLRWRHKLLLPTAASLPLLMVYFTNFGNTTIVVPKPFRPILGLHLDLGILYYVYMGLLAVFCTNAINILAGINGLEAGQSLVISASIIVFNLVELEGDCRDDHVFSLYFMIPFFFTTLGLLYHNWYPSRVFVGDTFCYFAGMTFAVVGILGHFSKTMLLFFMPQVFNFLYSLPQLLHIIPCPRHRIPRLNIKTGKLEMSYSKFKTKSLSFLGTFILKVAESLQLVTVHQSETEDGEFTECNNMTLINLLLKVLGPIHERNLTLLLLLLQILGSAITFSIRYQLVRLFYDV
UniProt P19650, whole entry: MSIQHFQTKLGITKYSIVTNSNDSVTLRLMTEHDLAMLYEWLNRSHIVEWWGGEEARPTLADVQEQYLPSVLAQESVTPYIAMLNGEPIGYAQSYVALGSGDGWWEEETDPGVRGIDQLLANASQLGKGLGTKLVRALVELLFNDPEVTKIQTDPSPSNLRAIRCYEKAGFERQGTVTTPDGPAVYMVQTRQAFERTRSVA
UniProt P9WPP7, whole entry: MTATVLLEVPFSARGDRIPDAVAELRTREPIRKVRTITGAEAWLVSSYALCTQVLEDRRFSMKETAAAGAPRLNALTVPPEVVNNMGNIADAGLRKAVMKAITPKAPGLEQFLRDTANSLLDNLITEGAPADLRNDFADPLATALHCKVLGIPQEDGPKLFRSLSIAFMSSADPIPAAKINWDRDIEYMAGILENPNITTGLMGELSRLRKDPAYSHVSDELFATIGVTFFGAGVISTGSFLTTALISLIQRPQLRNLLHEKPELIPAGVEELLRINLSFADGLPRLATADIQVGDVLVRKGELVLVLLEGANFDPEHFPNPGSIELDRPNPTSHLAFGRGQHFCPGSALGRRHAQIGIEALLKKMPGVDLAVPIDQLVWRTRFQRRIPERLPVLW
UniProt Q2FXH2, whole entry: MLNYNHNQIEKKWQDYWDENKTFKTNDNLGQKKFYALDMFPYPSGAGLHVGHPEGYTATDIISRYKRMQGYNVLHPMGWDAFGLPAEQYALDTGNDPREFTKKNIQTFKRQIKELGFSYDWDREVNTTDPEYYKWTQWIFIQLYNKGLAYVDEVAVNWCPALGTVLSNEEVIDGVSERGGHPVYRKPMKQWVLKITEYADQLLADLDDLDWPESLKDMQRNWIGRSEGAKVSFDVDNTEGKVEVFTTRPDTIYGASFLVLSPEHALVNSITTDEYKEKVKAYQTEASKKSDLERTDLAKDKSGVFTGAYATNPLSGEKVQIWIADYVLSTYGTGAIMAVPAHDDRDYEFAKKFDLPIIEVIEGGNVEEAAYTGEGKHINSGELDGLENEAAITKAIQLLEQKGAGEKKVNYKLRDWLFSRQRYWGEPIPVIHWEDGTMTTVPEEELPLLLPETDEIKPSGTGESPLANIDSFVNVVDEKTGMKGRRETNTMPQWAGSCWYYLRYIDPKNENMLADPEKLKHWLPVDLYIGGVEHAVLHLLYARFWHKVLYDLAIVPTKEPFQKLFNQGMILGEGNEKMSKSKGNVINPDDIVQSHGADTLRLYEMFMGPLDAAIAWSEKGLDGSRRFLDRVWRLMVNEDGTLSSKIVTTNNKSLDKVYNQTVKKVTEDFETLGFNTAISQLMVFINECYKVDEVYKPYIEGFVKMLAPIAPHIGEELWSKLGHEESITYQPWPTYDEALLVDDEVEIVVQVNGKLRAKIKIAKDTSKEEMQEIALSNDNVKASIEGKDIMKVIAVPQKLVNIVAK
UniProt A3FQ16, 1-538: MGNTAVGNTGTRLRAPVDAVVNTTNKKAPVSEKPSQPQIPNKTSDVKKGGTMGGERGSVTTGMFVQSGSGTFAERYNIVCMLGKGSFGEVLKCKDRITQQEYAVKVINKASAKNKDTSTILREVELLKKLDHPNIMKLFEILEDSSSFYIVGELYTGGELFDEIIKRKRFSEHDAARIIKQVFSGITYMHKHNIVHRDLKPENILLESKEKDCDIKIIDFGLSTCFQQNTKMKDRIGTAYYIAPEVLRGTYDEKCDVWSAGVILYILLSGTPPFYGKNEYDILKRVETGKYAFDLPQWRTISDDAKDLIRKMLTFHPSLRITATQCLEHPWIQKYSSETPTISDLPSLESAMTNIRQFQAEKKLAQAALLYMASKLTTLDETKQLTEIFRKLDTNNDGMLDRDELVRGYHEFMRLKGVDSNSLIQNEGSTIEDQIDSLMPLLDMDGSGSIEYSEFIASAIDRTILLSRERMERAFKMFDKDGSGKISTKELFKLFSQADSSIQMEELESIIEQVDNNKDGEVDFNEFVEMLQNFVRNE
UniProt Q8T6T2, whole entry: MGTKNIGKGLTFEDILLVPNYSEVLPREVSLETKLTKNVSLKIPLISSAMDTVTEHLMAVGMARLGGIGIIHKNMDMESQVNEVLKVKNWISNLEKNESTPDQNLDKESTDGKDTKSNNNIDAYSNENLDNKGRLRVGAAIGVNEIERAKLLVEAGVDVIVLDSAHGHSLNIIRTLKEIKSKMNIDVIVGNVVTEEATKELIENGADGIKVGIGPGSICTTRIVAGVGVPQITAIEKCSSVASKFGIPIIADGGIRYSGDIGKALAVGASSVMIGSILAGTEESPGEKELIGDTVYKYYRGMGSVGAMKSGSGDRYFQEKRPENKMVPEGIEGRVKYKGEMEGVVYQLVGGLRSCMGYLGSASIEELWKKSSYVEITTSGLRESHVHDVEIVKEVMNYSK
UniProt P17921, whole entry: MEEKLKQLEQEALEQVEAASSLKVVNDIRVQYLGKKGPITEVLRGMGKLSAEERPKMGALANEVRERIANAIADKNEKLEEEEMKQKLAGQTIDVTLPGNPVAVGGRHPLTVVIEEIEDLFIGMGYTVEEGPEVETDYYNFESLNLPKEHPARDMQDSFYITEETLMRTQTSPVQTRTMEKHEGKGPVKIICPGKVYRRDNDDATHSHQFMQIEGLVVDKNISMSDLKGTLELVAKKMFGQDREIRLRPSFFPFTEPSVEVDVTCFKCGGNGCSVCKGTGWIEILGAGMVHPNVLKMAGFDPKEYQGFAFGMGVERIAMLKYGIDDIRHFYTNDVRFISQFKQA
UniProt P19784, whole entry: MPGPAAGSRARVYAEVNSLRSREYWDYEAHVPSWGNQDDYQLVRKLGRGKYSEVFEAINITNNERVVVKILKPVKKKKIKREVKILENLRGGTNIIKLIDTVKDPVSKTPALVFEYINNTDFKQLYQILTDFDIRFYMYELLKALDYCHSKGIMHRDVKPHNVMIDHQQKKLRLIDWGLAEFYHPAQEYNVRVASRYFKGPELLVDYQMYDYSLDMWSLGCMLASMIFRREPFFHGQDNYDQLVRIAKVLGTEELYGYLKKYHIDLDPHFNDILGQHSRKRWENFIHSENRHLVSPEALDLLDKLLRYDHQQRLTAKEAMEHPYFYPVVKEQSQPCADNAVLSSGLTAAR
UniProt Q9BJF5, 1-507: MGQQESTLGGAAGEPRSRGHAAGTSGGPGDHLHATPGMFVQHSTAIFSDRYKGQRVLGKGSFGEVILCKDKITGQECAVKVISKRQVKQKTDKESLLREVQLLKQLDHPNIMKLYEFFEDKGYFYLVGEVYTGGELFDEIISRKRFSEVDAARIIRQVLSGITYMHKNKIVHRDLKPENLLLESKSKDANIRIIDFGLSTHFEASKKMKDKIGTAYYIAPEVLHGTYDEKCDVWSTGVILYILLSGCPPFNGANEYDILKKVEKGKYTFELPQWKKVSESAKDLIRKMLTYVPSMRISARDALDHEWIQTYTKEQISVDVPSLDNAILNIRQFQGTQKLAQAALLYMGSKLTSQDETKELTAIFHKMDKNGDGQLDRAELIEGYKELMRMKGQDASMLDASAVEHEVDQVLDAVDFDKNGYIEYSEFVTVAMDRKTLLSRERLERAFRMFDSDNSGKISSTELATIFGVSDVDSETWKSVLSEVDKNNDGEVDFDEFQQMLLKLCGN
UniProt P26918, whole entry, looked up: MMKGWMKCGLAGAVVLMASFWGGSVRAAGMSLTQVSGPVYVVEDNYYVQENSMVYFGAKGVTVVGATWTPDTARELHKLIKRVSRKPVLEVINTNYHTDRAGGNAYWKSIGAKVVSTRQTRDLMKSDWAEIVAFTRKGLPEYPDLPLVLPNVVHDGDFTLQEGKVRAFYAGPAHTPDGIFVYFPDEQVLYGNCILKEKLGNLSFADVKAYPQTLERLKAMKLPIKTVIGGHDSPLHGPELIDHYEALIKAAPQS
UniProt P51681, whole entry: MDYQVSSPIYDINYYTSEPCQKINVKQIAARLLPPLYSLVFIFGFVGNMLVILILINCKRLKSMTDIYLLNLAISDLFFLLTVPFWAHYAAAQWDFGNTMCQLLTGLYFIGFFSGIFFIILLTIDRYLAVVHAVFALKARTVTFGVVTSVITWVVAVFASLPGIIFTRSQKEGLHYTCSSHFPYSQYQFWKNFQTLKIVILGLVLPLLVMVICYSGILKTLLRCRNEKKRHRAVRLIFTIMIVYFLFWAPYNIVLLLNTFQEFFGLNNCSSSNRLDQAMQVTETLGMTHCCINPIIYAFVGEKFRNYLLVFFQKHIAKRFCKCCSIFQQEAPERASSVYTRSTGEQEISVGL
UniProt P05067, 672-713 limits assumed: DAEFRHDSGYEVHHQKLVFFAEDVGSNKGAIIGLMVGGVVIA
UniProt P42574, whole entry, looked up: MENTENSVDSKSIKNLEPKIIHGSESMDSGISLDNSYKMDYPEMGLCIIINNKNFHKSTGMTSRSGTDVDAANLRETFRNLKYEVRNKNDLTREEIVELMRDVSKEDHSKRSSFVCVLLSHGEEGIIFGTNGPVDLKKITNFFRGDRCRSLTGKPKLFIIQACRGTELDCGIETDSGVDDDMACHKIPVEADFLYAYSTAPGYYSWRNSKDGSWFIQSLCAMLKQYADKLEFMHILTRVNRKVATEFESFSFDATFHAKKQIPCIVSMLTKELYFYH
UniProt P06935, 1502-1679 limits assumed: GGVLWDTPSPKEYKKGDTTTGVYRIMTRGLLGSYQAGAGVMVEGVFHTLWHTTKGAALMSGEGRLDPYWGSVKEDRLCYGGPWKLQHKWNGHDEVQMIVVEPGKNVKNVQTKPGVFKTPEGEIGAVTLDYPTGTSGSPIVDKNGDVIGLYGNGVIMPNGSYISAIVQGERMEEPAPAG
UniProt P06935, 1424-1463 partner limits assumed: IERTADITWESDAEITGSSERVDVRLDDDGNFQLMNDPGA
UniProt P00374, whole entry: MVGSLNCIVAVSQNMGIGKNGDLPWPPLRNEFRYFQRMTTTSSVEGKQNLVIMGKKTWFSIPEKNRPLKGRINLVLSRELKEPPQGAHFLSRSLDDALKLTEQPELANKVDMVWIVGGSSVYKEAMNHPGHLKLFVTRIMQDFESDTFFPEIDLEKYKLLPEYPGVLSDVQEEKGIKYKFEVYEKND
UniProt Q7KQK5, 83-531 limits assumed: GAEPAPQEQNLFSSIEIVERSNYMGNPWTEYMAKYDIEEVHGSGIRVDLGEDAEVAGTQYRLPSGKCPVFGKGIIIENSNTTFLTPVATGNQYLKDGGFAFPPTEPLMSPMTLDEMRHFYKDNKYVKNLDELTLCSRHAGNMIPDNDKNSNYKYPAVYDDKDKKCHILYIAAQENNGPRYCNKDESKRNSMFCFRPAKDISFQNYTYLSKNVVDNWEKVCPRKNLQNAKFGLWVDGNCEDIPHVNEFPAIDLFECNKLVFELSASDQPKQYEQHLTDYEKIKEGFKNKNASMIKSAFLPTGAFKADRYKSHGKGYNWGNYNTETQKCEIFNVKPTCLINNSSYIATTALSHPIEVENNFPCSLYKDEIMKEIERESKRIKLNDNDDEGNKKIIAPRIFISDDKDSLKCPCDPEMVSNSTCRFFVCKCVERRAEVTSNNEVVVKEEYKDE
UniProt Q06187, whole entry: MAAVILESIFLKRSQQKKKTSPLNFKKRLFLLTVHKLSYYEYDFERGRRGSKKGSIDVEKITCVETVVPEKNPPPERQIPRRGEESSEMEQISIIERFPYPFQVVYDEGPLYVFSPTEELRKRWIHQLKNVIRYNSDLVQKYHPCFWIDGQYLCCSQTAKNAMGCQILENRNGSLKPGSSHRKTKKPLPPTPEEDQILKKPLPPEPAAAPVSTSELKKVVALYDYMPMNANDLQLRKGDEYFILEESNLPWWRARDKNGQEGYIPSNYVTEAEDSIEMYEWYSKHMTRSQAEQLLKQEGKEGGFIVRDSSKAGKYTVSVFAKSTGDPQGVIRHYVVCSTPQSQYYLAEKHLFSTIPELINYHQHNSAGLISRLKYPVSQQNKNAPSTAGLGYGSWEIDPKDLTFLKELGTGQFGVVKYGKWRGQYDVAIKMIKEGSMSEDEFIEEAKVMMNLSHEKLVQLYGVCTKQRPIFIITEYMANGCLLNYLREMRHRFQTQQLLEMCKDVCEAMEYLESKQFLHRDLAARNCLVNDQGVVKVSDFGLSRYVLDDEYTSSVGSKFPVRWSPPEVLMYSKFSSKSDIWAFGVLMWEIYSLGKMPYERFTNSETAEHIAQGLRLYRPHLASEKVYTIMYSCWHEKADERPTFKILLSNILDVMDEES
UniProt Q8IKV6, 2021-2059 partner limits assumed: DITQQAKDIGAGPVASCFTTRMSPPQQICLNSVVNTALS

SMILES	target	test	system	conditions	endpoint	result
C1=C(CCNCc2ccccc2)CCCC1	Phenylalanine--tRNA ligase alpha subunit, with beta subunit (pheS, Bacillus subtilis, UniProt P17921)	phenylalanine activation, inhibitor			IC50	> 300 µg/mL
Cc1ccc(N(C)c2cc(N(C)C3CC3)n3ncc(C#N)c3n2)cc1NC(=O)C1CC1	CSNK2A2 (Homo sapiens, UniProt P19784)	inhibitor			IC50	> 10000 nM
N=C(CCl)NCCC[C@H](NC(=O)c1ccc(O)cc1)C(=O)NCc1ccccc1	PADI4 (Homo sapiens, UniProt Q9UM07)	enzyme activity, inhibitor		37 °C, 10 min preincubation, together with: Z-Arg-AMC	IC50	836 ± 240 nM
CO[C@H]1[C@H](O[C@H]([C@H]2O[C@@H](n3ccc(=O)[nH]c3=O)[C@H](O)[C@@H]2O)[C@H](NCCCNC(=O)[C@@H](NC(=O)[C@@H](NC(=O)N[C@H](C(=O)O)C(C)C)[C@@H]2CCNC(=N)N2)[C@@H](OC(=O)CCCCCCCCCCCCNC(=N)N)C(C)C)C(N)=O)O[C@H](CN)[C@H]1O	UDP-N-acetylglucosamine--dolichyl-phosphate N-acetylglucosaminephosphotransferase	enzyme activity, inhibitor			IC50	200 ± 58 nM
CC(CCN[C@H](CN[C@H](CO)CN1CCC[C@H]1CN[C@H](CN)c1ccccc1)c1ccccc1)c1ccccc1 (stereo partly drawn)	aacA4	acetyltransferase activity, inhibitor			IC50	2100 nM
c1ccc(-c2ccc(Cn3ccnc3)o2)cc1	cyp121			racemate	Kd	34000 nM
COC(C)(C)Cn1cc(-c2ccc3cc(OC4CC4)ccc3c2)c2c(N)ncnc21	CDPK1 (Toxoplasma gondii, UniProt Q9BJF5)	enzyme activity, inhibitor, Kinase-Glo		together with: syntide-2	IC50	15 nM
C[C@H](CS)C(=O)N[C@@H](Cc1c[nH]c2ccccc12)C(=O)O	Metallo-beta-lactamase type 2 (Aeromonas hydrophila, UniProt P26918)	enzyme activity, inhibitor			IC50	> 400000 nM
CCCCOCc1nn[nH]c1CNS(=O)(=O)c1ccc(Cl)cc1	VIM-2	enzyme activity, inhibitor		together with: nitrocefin	IC50	18900 ± 6000 nM
CNC(=O)COCC(=O)NCCCCCCCNC(=O)COCC(=O)Nc1ccc([C@H](CCN2[C@@H]3CC[C@H]2C[C@H](n2c(C)nnc2C(C)C)C3)NC(=O)C2CCC(F)(F)CC2)cc1	CCR5 (Homo sapiens, UniProt P51681)	calcium mobilization, antagonist	MOLT-4 cells expressing CCR5	together with: RANTES (CCL5)	IC50	833 ± 150 nM
O=[N+]([O-])c1ccccc1S(=O)(=O)Nc1ccc2c(c1)B(O)OC2	Leucine--tRNA ligase				IC50	> 100000 nM
CCCC[C@H](CN)NC[C@@H]1CCCN1C[C@@H](CO)NC[C@@H](NCCC12CC3CC(CC(C3)C1)C2)c1ccccc1	aacA4	acetyltransferase activity, inhibitor			IC50	10700 nM
COc1cccc(Nc2ncc(Oc3cccc(N(C)C)c3)cn2)c1	Amyloid-beta precursor protein, Aβ42 with fibrinogen (APP, Homo sapiens, UniProt P05067)	AlphaLISA			IC50	6420 nM
CCC(=O)Nc1cc(-c2nn(C3CCN(CCNC(=O)[C@H](C)CCC45CC6CC(CC(C6)C4)C5)CC3)c3ncnc(N)c23)ccc1Oc1ccccc1	ERBB3 (Homo sapiens, UniProt P21860)	ATP-site binding, LanthaScreen TR-FRET		3 h	IC50	326 nM
CC(C)C[C@H](NC(=O)[C@H](Cc1ccccc1)C[C@@H](O)[C@H](Cc1ccccc1)NC(=O)OC(C)(C)C)C(=O)N[C@@H](Cc1ccc(C(=O)c2ccccc2)cc1)C(=O)NCCCCCNC(=O)CCCC[C@@H]1SC[C@@H]2NC(=O)N[C@@H]21	Presenilin-1, γ-secretase complex (PSEN1, Homo sapiens, UniProt P49768)	Aβ42 production	HeLa cell membranes	together with: recombinant APP substrate	IC50	0.3 nM
COCCCn1nc(-c2ccc(CC(=O)Nc3cccc(F)c3)cc2)c2c(N)ncnc21	NTRK1 (Homo sapiens, UniProt P04629)	inhibitor			IC50	1740 ± 430 nM
NC[C@@H](NC[C@@H]1CCCN1C[C@@H](CO)NC[C@@H](NCCC12CC3CC(CC(C3)C1)C2)c1ccccc1)c1ccccc1	aacA4	acetyltransferase activity, inhibitor			IC50	5700 nM

SMILES	target	test	system	conditions	endpoint	result
[N-]=[N+]=CC(=O)[C@H](Cc1cccc([N+](=O)[O-])c1)NC(=O)OCc1ccccc1	Caspase-3 (CASP3, Homo sapiens, UniProt P42574)	enzyme activity, inhibitor		together with: Ac-DEVD-AMAC substrate	IC50	> 40000 nM
CC(C)(O)Cn1nc(-c2ccc3nc(OC4CC4)ccc3c2)c2c(N)ncnc21	Calmodulin-domain protein kinase 1, putative	enzyme activity, inhibitor, Kinase-Glo		together with: syntide-2	IC50	3.2 nM
NCc1ccc(-c2ncc(OCC3CCNCC3)nc2-c2ccc(-c3cn[nH]c3)cc2)cc1	Genome polyprotein, NS2B-NS3 protease (West Nile virus, UniProt P06935)	enzyme activity, inhibitor		NS2B-NS3 protease	IC50	120 ± 20 nM
CC(C)CC(NC(=O)C1OC1C(=O)O)C(=O)NCCCCN=C(N)N (stereo not drawn)	Cathepsin K (CTSK, Homo sapiens, UniProt P43235)	enzyme activity, inhibitor			IC50	1.45 nM
CC(c1ccc2c(c1)Cc1cc(F)ccc1-2)n1ccnc1 (stereo not drawn)	cyp121	binding			Kd	17000 ± 2000 nM
COC(C)(C)Cn1nc(-c2ccc3cc(OC4CC4)ccc3c2)c2c(N)ncnc21	Calmodulin-domain protein kinase 1, putative	enzyme activity, inhibitor, Kinase-Glo		together with: syntide-2	IC50	1330 nM
CC(Oc1ccccc1)C(=O)Nc1ccc(Cl)cc1 (stereo not drawn)	Inosine-5'-monophosphate dehydrogenase (guaB, Helicobacter pylori, UniProt P56088)	enzyme activity, inhibitor		corrected for open enzyme conformation	IC50	1100 nM
CCCOC(=O)N[C@H](C(=O)NCCCN[C@H](C(N)=O)[C@H](O[C@@H]1O[C@H](CN)[C@@H](O)[C@H]1OC)[C@H]1O[C@@H](n2ccc(=O)[nH]c2=O)[C@H](O)[C@@H]1O)[C@@H](OC(=O)CCCCCCCCCCCCN(O)C(=N)N)C(C)C	UDP-N-acetylglucosamine--dolichyl-phosphate N-acetylglucosaminephosphotransferase	enzyme activity, inhibitor			IC50	250 ± 95 nM
[2H]C1(C(=O)Nc2ccc3cc(C(=O)O)ccc3c2)CCN(S(=O)(=O)c2ccc(C)cc2C)CC1	EPHX2 (Homo sapiens, UniProt P34913)			pH 7.0, 30 °C, together with: CMNPC substrate 5 µM	IC50	53 nM
O=S(=O)(Nc1ccc2c(c1)B(O)OC2)c1ccccc1F	Leucine--tRNA ligase				IC50	28000 ± 1000 nM
O=C(Cn1c(-c2cscn2)nc2ccccc21)Nc1ccc(Br)cc1	Inosine-5'-monophosphate dehydrogenase	enzyme activity, inhibitor, NADH fluorescence	recombinant enzyme		IC50	60 ± 30 nM
Nc1nc(N)c2c(Cl)c(CNc3ccc(C(=O)O)cc3)ccc2n1	DHFR (Homo sapiens, UniProt P00374)	enzyme activity, inhibitor			IC50	7.6 nM
CC[C@H](C)[C@H](NC(=O)[C@H](Cc1cnc[nH]1)NC(=O)[C@H](CCSC)NC(=O)[C@H](CCCNC(=N)N)NC(=O)[C@H](CO)NC(=O)CNC(=O)[C@H](Cc1ccccc1)NC(=O)[C@H](CCCCN)NC(=O)[C@H](CO)NC(=O)[C@H](Cc1ccccc1)NC(=O)[C@H](CC(C)C)NC(=O)[C@@H]1CCCN1C(=O)[C@H](CC(C)C)NC(=O)[C@H](Cc1ccccc1)NC(=O)[C@H](CCC(=O)O)NC(=O)[C@H](C)NC(=O)[C@H](Cc1ccccc1)NC(=O)[C@@H](N)C(C)C)C(=O)N[C@@H](CC(C)C)C(=O)N[C@@H](CCCCN)C(=O)O	Apical membrane antigen 1, with RON2 peptide (Plasmodium falciparum, UniProt Q7KQK5)	AMA1-RON2L binding, inhibitor, AlphaScreen		AMA1 3D7 allele	IC50	~700 nM
C=CC(=O)Nc1cc(-n2c(=O)ccc3cnc4ccc(-c5cn[nH]c5)cc4c32)ccc1C	BTK (Homo sapiens, UniProt Q06187)	enzyme activity, inhibitor, Invitrogen SelectScreen			IC50	8 nM
O=S(=O)(NCc1[nH]nnc1CNC1CCCCC1)c1ccccc1	VIM-2	enzyme activity, inhibitor		together with: nitrocefin	IC50	130 ± 10 nM
O=C(Cn1c(-c2nccs2)nc2ccccc21)Nc1ccc2ccccc2c1	Inosine-5'-monophosphate dehydrogenase	enzyme activity, inhibitor, NADH fluorescence	recombinant enzyme		IC50	8 ± 3 nM

Repeated from above:
SMILES	target	test	system	conditions	endpoint	result
C=CC(=O)Nc1cc(-n2c(=O)ccc3cnc4ccc(-c5cn[nH]c5)cc4c32)ccc1C	BTK (Homo sapiens, UniProt Q06187)	enzyme activity, inhibitor, Invitrogen SelectScreen			IC50	8 nM
O=S(=O)(NCc1[nH]nnc1CNC1CCCCC1)c1ccccc1	VIM-2	enzyme activity, inhibitor		together with: nitrocefin	IC50	130 ± 10 nM
O=C(Cn1c(-c2nccs2)nc2ccccc21)Nc1ccc2ccccc2c1	Inosine-5'-monophosphate dehydrogenase	enzyme activity, inhibitor, NADH fluorescence	recombinant enzyme		IC50	8 ± 3 nM
